Published values from different studies.
Numbered parts are unrelated; each lists some results of a single study.

Sample 1 — technique: RNA Bind-n-Seq; form: RNA; medium: in vitro; concentration: 365 nM; relative to: no-protein control; direction: higher = stronger binding; measurement: RBNS enrichment (R)
Target: RNA binding protein fox-1 homolog 2, RRM domain, GST-SBP tag (RBFOX2, Homo sapiens, UniProt O43251-10, residues 100-194)
Setting: natural RNA segment, single round, ends assumed
Residues (chain): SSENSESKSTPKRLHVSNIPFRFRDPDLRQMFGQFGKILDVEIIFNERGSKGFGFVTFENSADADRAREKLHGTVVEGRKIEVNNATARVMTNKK
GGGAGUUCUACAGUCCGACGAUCGUGCUGGAAUUAGCCUGGCCAAUCUUGGAUUUUUAAUGGAAUAUGUGGGCACAAAAUGACAGAACAUAGGACAUUCUAAAGUUCCUUGAUUUGAUCAUUAUAAGAAGUGUUGGAAUUCUCGGGUGCCAA: 0.508
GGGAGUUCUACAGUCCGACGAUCGGCAACACUGUUAUUGAAAAUCAUGUAAGAUUAAAGAGAGGCAUUUUCGUUUCUAUACAACUUCAUUUCAUACACCUUCUGCCCUUACAGCACCUCAUGGGAUCAGAAAAUGGAAUUCUCGGGUGCCAA: 0.517
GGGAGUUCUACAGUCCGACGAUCUGGUUAGUGCUCACCCACAAGCUUCCAGGAGCCAGCUGGGAGGAGACAAUAGGAAGAGAUGUCAUCUCUGCUCUCCCUGUAAAUGUUAGUUGAACUAAGUUAUGGAUUUGUGGAAUUCUCGGGUGCCAA: 0.624
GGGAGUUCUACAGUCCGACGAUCGCCUCUCCCCUGCAGCAAACGUUUGCCUGGGCAUUGAGGCAUUUCCAUACAUCUUCUGAAAACUAGGCGGAGGUUUCCAAAUCUCAAUUCUUGACUUCUGUGCACCUGCAUGGAAUUCUCGGGUGCCAA: 1.05
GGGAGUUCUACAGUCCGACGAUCGAAAAGAGGCCCAUGGCGUCGAGCCCAGCCCUGACCGCCAGCUGGCUGAGGUCGUGCCCUGCUGGGCUGCCCUCCAAUGUGCCUCACGCAAUAAAGAAUUCUCCCUCUGCUGGAAUUCUCGGGUGCCAA: 0.262
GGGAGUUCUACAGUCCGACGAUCAAUUAUAGGCUGUGGGCAGAGGGUCUGAAAGGUGGGCUUUGGGGUAGUGCCCAAGCCUGGUCGUGUUGCCAGGAGUGGUGACAAGAAAUGCAGCUUACAUCAAACGAACAUGGAAUUCUCGGGUGCCAA: 0.546
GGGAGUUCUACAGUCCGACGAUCUUGAGAGAGCAGGGUAAGGAAGGAAUGUGCUAGAAGUGCUCCUAGUUUCUUGUAAAGGAAGCCAGAGUUGACAGUACAAAGGGUCGUGGCCAGCCCUGCAGCUUCAGCACUGGAAUUCUCGGGUGCCAA: 1.77
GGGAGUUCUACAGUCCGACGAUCACAUGGUUACUAAGAAGAGAAAAACCUGAUGUUUGCAUAAUAUUUUUUUUCCCCUCGAGAUGGAGUCUUGCUCUGUUGCCCAGGCUGGAGUGCAGUGGCAUGAUCUCAGCUGGAAUUCUCGGGUGCCAA: 1.74
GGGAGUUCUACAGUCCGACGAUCGACAAUGCAUGGGGUGGUCUUUAUUUUUCCCUUUCAAAUAAAACACUAGUCAGGUACCGUUUUAUCCCAGUCGUACUCUUCCAGGUUUGGAAGACCCAGAGAGGCCAAGAUGGAAUUCUCGGGUGCCAA: 10.1
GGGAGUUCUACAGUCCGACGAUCUACAAGGACUUUUGACAGUUUAGUGCUUAGUAACUAGUCUUAGUUUUCUUCCUUUUAGAAAAACUGUACAUUUGAUCUCUCAAUUCUGUUUGCAAAGCAGUGCAGAAAACUGGAAUUCUCGGGUGCCAA: 0.259
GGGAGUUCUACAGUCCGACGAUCGCUGGCAUUCACACGCUUCCAUGGACAAACUUGACUUGCUCUAGGGAACCUUGGGUUAUCAUGUCACGAUGCCUGUGACCAUGAUUUCACGAAGUAGGUUUCCUCUGGCUUGGAAUUCUCGGGUGCCAA: 0.439
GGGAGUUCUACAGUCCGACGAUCGCUGCAUUAUUCCAGUCAGGACUGUGAUAACUUGCUGCCAGCCCCACUCAACUUUCAGUUGGCUCUGUGUCAGUUUUCCAUUCAGUGUUAACUACUUGUUACUGCCAUGCUGGAAUUCUCGGGUGCCAA: 1.02

Sample 2 — technique: universal PBM; form: double-stranded DNA, one strand shown; medium: in vitro; concentration: not given; direction: higher = stronger binding; measurement: E-score
Target: Sal-like protein 4, full length isoform B (SALL4, Homo sapiens, UniProt Q9UJQ4-2, residues 1-616)
Setting: 8-mer, flanks averaged, mean of replicates
ATGCCCCC: -0.26
ACGCAAAT: 0.0307
GGGACTTA: 0.00905
CGTCTGAG: -0.145
CTAATGCC: -0.0765
AGGGATCG: -0.147
ACACCTTA: 0.0797
CAAATAAG: 0.0676
GGGCCACA: -0.204
CGAGGGGA: -0.2
ACGAGCGA: 0.0194
CTCCCAGA: -0.108
CAAGCGAC: -0.118
CCAGCAAG: -0.0975
CGTCAGTA: 0.0335
TCACTTCA: -0.00836
ACCGAAAC: -0.137
AAAGCTCT: -0.201
AATATCGA: 0.301
GCCTCCTA: -0.19
CGGTGACA: -0.199
AACATACC: 0.121
CCGTCACG: -0.14
AAGCAGGA: -0.0126
CAGTGGCA: -0.0833

Sample 3 — technique: protein-binding microarray; form: double-stranded DNA, one strand shown; medium: in vitro; concentration: 2540 nM top; setting: 60-bp whole probe; added: salmon DNA 0.4 mg/ml; relative to: random background probes; direction: higher = stronger binding; measurement: fitted relative affinity; shared flanks, not repeated: GCCTAGCAC … GTCTTGATTCGCTTGACGCTGCTG
Target: Interferon regulatory factor 3, full length, phosphomimetic (IRF3, Homo sapiens, UniProt Q14653, residues 1-427, S386D/S396D/S398D/S402D/T404D/S405D)
Target sequence (chain): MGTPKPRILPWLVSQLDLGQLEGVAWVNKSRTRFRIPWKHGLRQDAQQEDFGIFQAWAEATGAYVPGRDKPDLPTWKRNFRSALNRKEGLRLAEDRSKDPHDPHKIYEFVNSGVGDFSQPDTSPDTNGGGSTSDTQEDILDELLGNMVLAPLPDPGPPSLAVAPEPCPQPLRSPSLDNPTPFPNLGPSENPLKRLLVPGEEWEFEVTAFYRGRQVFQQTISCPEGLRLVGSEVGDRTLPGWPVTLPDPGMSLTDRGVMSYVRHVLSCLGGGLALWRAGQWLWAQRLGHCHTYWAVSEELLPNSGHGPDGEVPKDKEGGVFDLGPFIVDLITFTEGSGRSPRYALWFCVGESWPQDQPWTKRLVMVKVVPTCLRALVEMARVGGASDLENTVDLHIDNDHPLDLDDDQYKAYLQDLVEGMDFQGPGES
AACAGTTCATGTTTTGGAAAGTGCTAG: 0.894 z-score
TTAGATTTCGGTCTCGATTAGTGCTAG: 4.62 z-score
TTAGTTCTCCTTTTCCTTTAGTGCTAG: 5.16 z-score
GACGGTTTCGGGATCGGGACGTGCTAG: 4.99 z-score
AACGATCTCAGTTTCGAGACGTGCTAG: 2.56 z-score
GACGGTATCGGGACTGGGGTCGTGCTA: 1.68 z-score
GACGGTCTCGGACGGGGGACGTGCTAG: -0.00685 z-score
ATGTTTGTCACTCTCAGAATGTGCTAG: 1.24 z-score
TTAGGTTTCAGGTTTCGGTTAGTGCTA: 5.22 z-score
TCACCTCTCTGTCCCCCTTTGTGCTAG: 0.955 z-score
TGAGGACTGGGGTTTCGGTTAGTGCTA: 2.25 z-score
GACGGTATCGACTTTCGCGACGTGCTA: 1.24 z-score
TCACCTTTCCAAATACCACTGTGCTAG: 4.6 z-score
ATCTTCATGAAATTTTAGTAAGTGCTA: 0.285 z-score
TCAAAAATGATGTTTTAGACTGTGCTA: -0.325 z-score
CTCACTCTGTCCCTCTGTGAGTGCTAG: 0.614 z-score
GACGATATCAGTATCGAGACGTGCTAG: 1.28 z-score
TTAGGTATCGACTATCGATTAGTGCTA: 0.628 z-score
GGCTTTTTAATGAATGAAGAGGTGCTA: -0.128 z-score
TTAGATTTCAGTTCCGGTTAGTGCTAG: 3.8 z-score
TATTTTTTTGTAATCGAAATGTGCTAG: 0.918 z-score
TTAGGTACCCTTTTCCTTTAGTGCTAG: 5.14 z-score
TTGGGACTGGGACTGGGTTAGTGCTAG: -1.1 z-score
GACGGACTGGTTCTCCTGACGTGCTAG: 0.0142 z-score
TTAGGTATCGACCATCGGTTAGTGCTA: -0.236 z-score

Sample 4 — technique: protein binding microarray; form: double-stranded DNA, one strand shown; medium: in vitro; concentration: not given; relative to: not given; direction: higher = stronger binding; measurement: E-score
Target: Histone acetyltransferase KAT6A, winged helix 2, GST fusion (KAT6A, Homo sapiens, UniProt Q92794, residues 85-181)
Setting: 8-mer, flanks averaged, mean of 2 arrays, mostly near background
Construct (chain): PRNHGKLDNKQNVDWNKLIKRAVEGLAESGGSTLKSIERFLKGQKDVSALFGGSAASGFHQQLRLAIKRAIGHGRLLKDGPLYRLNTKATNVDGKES
GCAGTTCC: 0.0367
CGTTTGAG: 0.126
ATGAAGCG: -0.0965
AACGCGGA: 0.0206
AACTTACC: -0.0107
AGAGATCG: -0.0123
GGACGTGA: -0.195
TGGATCAA: -0.0107
CATTATCG: -0.0856
CATAGTGC: -0.0477
CGTAAAGA: -0.0707
CGACGCTA: -0.0531
CATCCTCC: -0.129
AAAACCAC: -0.1
GCGGCTAC: 0.216
AGGTGCGA: 0.0883
GTAATGAC: -0.0858
AAGTTGGA: -0.0253
CGACCTAA: 0.147
ACGATTTC: -0.058
CACCACAC: -0.0413

A few entries again (sample 3):
TTAGGTTTCAGGTTTCGGTTAGTGCTA: 5.22 z-score
TCACCTCTCTGTCCCCCTTTGTGCTAG: 0.955 z-score
TGAGGACTGGGGTTTCGGTTAGTGCTA: 2.25 z-score
GACGGTATCGACTTTCGCGACGTGCTA: 1.24 z-score
TCACCTTTCCAAATACCACTGTGCTAG: 4.6 z-score
ATCTTCATGAAATTTTAGTAAGTGCTA: 0.285 z-score
TCAAAAATGATGTTTTAGACTGTGCTA: -0.325 z-score
CTCACTCTGTCCCTCTGTGAGTGCTAG: 0.614 z-score
